{"data": "Assay results from different studies", "note": "Numbered parts are unrelated; each lists some results of a single study."}
{"data": "Sample 1", "target": "RNA binding protein fox-1 homolog 2, RRM domain, GST-SBP tag (RBFOX2, Homo sapiens, UniProt O43251-10, residues 100-194)", "method": "RNA Bind-n-Seq", "molecule type": "RNA", "matrix": "in vitro", "tested at": "365 nM", "notes": "natural RNA segment, single round, ends assumed", "reference": "no-protein control", "reading": "higher = stronger binding", "Construct (chain)": "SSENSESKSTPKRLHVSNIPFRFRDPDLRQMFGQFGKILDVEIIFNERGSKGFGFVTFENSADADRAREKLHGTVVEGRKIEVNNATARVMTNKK"}
{"Sequence": "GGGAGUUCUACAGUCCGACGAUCUCAUACGCGAAGGCCAUAUGGCCAUCGUGUCAGCAGAGAGAGUCUCUGUACACAGCCCCGUGAACCCUGAGGAGUGGAGUCAUACACGAAGGGCGUGUGGCCAUCGUGUCUGGAAUUCUCGGGUGCCAA", "RBNS enrichment (R)": 0.257}
{"Sequence": "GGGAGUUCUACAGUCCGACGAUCCAUUUAAAAUUCCUUUUAAGAUUCGUGGAUUUUAUUUUUAUUAAGUAUAUAGAUAUAUAAAGUACUGUAGUUUACAGCUAGGCCUUGAGAUAUCUUUUUAGGAUCUGUUAUGGAAUUCUCGGGUGCCAA", "RBNS enrichment (R)": 0.85}
{"Sequence": "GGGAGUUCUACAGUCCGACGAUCAGGGCAUUUGUAGAAUUAGUGACCCACUGCAUGUCUGUCCCCAAGGCCGGGAAAAGAGACAGGCAGCUCCUCAGCCUGAGAACGCCGCCGAUGCGACCAAGUGUCAGGCUUGGAAUUCUCGGGUGCCAA", "RBNS enrichment (R)": 0.447}
{"Sequence": "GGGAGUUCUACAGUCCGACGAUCUUUGACCCCUGGAGUGGUGGGUCUCAUCUUUCCCAUCUCGCCUGAGAGCGGCUGAGGGCUGCCUCACUGCAAAUCCUCCCCACAGCGUCAGUGAAAGUCGUCCUUGUCUCUGGAAUUCUCGGGUGCCAA", "RBNS enrichment (R)": 0.4}
{"Sequence": "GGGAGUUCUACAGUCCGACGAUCCAAACUCCUUUCUUAUCUUGACCAUACUAAUAAAUAUAAUUUAUAAGCAUUGCCAUUGAAGGCUUAAUUGACUGAAAUUACUUUAACAUUUUGGAAAUUGUUGUAUAUCAUGGAAUUCUCGGGUGCCAA", "RBNS enrichment (R)": 0.667}
{"Sequence": "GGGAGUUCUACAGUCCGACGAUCCAGGGUUUCACUGUGUUGCCCAGGCUGGUCUCAAACUCCUGAGCUCAGGCAAUCUGCCCGCCUUGGCCUCCCAAAGUGCUAGGAUUACAGGUAUGAGCCACCAUGCCCGGUGGAAUUCUCGGGUGCCAA", "RBNS enrichment (R)": 0.188}
{"Sequence": "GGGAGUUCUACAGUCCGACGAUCUCAGUCUAGCUUUUAAUUAAGUUAUUUUGUAUAGCUUAAUUUGUAAAACAUUUUAUGUUUUUUAGAUGCUUUAUUAAAUACAUGGCCAAACCAAAUAACAUCUUUCAGUAUGGAAUUCUCGGGUGCCAA", "RBNS enrichment (R)": 0.753}
{"Sequence": "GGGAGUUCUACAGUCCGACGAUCAACCAGUGUGGUUGCCAGAGUGGUCAGGCUGCUCUGAGACAGGGAAGUCUGAUCUCCGCAGGAAACUCUUGUGAAGUAACUGGUGCCUGAGGUGCACUCAAGUGUGGGACUGGAAUUCUCGGGUGCCAA", "RBNS enrichment (R)": 0.276}
{"data": "Sample 2", "target": "Interferon regulatory factor 7, full length, phosphomimetic (IRF7, Homo sapiens, UniProt Q92985, residues 1-503, S471D/S472D/S475D/S476D/S477D/S483D/S484D/S487D)", "method": "protein-binding microarray", "molecule type": "double-stranded DNA, one strand shown", "matrix": "in vitro", "tested at": "2200 nM top", "notes": "60-bp whole probe", "together with": "salmon DNA 0.4 mg/ml", "reference": "random background probes", "reading": "higher = stronger binding", "constant ends, left off below": "GCCTAGCAC … GTCTTGATTCGCTTGACGCTGCTG", "UniProt Q92985, sequence (whole entry, unmodified, looked up)": "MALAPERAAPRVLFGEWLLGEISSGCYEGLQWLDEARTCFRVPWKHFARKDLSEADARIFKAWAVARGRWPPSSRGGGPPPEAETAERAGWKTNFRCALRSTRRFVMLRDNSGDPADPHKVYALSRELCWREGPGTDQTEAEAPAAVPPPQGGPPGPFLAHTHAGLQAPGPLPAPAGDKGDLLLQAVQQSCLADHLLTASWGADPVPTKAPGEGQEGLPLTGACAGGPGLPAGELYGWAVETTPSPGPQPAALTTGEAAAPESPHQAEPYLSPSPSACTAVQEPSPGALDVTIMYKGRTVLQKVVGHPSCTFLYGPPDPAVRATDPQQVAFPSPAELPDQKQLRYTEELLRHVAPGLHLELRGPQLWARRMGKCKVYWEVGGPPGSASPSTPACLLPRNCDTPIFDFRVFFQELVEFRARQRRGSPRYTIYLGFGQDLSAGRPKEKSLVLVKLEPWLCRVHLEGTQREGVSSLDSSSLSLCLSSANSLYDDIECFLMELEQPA"}
{"Sequence": "GACGGTCTCCTTACCCTGACGTGCTAG", "fitted relative affinity [z-score]": 0.642}
{"Sequence": "TTAGGACTGGGTTTAGGTTAGTGCTAG", "fitted relative affinity [z-score]": -0.2}
{"Sequence": "CATTCTCTGTTTATGTCTGGGTGCTAG", "fitted relative affinity [z-score]": 2.86}
{"Sequence": "GACGGTCTCGGAATGGGGACGTGCTAG", "fitted relative affinity [z-score]": -0.0576}
{"Sequence": "GGCCTTGGAGGGGGTGGGTGGTGCTAG", "fitted relative affinity [z-score]": 0.258}
{"Sequence": "TGCTTTGGACCCAGGGCTAAGTGCTAG", "fitted relative affinity [z-score]": 0.0511}
{"Sequence": "GACGGTATCAGGTTTCGGGACGTGCTA", "fitted relative affinity [z-score]": 2.13}
{"Sequence": "GACGGGCTGGGGTATCGGGACGTGCTA", "fitted relative affinity [z-score]": -0.854}
{"Sequence": "GACGATCTCAGTTACGAGACGTGCTAG", "fitted relative affinity [z-score]": 0.243}
{"Sequence": "TCAAGTCCCACATCTCTGACTGTGCTA", "fitted relative affinity [z-score]": 0.946}
{"Sequence": "GACGGTCTCGGTCTCCGGACGTGCTAG", "fitted relative affinity [z-score]": -0.0161}
{"Sequence": "TTTTTTTTTTTTTTGTATTTGTGCTAG", "fitted relative affinity [z-score]": 2.36}
{"Sequence": "TTAGGTTGCGGGTATCGGTTAGTGCTA", "fitted relative affinity [z-score]": 0.761}
{"data": "Sample 3", "target": "Ras GTPase-activating protein-binding protein 1, full length (G3BP1, Homo sapiens, UniProt Q13283)", "method": "RNA Bind-n-Seq", "molecule type": "RNA", "matrix": "in vitro", "tested at": "200 nM", "notes": "whole 134-nt RNA, ends assumed", "together with": "150 mM KCl", "reference": "input library", "reading": "higher = stronger binding", "UniProt Q13283, sequence (whole entry, looked up)": "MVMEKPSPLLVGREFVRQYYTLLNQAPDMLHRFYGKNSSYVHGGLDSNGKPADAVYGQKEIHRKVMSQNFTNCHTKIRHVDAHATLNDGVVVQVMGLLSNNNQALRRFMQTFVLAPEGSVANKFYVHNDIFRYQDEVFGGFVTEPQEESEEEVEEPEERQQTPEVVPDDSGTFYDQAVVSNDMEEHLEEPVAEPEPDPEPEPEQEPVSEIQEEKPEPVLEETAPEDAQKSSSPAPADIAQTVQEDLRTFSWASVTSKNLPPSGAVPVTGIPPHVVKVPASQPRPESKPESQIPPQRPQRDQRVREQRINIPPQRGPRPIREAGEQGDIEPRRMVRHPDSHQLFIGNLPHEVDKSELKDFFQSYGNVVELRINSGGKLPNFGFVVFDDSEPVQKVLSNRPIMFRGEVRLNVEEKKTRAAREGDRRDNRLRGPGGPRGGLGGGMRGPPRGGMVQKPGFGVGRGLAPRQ"}
{"Sequence": "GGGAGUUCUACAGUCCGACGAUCAGUCCUGUGCUACACAUCGUAUGUACCGAAUCGGGAAAGGGUUUUUGGGUUUUUGGGAAAGUAUUAUGUUACGCCGUUCGGAUCUGCACUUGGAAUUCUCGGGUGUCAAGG", "log2 enrichment": -0.392}
{"Sequence": "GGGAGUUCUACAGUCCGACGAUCUCAAGUCCUGUGCUACACAUCGUAUGUACCGAAUCGGAAAGGGAAAGGAAAGGGGAAAGUAUUAUGUUACGCCGUUCGGAUCUGCACUUCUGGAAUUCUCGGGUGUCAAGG", "log2 enrichment": -0.814}
{"Sequence": "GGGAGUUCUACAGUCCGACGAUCUCAAGUCCUGUGCUACACAUCGUAUGUACCGAAUCGGUUUUUGGAAAAAGGUGGAAAGUAUUAUGUUACGCCGUUCGGAUCUGCACUUCCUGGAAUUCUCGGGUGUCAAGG", "log2 enrichment": -0.749}
{"Sequence": "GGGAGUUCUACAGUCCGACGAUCAAGUCCUGUGCUACACAUCGUAUGUACCGAAUCGGUUUUUGGUUUGGUUUUUUUGGAAAGUAUUAUGUUACGCCGUUCGGAUCUGCACUUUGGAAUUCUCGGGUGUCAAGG", "log2 enrichment": -1.1}
{"Sequence": "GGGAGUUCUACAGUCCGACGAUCCCUGUGCUACACAUCGUAUGUACCGAAUCGGGGAAAAAGGGGAAAAAAAGGGGUUUGGGGAAAGUAUUAUGUUACGCCGUUCGGAUCUGCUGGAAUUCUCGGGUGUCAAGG", "log2 enrichment": 0.354}
{"Sequence": "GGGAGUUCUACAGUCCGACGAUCCCUCAAGUCCUGUGCUACACAUCGUAUGUACCGAAUCGGGGAGGGGAGGGAGGAAAGUAUUAUGUUACGCCGUUCGGAUCUGCACUUCCAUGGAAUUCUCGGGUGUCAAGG", "log2 enrichment": 0.887}
{"Sequence": "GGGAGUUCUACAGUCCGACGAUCAAGUCCUGUGCUACACAUCGUAUGUACCGAAUCGGGAAAGGGUUUUUGGGUUUGGGAAAGUAUUAUGUUACGCCGUUCGGAUCUGCACUUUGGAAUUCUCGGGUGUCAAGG", "log2 enrichment": 0.176}
{"Sequence": "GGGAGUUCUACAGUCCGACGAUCAGUCCUGUGCUACACAUCGUAUGUACCGAAUCGGAAAGGAAAAAAAGGAAAAAAAGGAAAGUAUUAUGUUACGCCGUUCGGAUCUGCACUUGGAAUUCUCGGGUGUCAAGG", "log2 enrichment": -0.982}
{"Sequence": "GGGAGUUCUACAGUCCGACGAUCCCUGUGCUACACAUCGUAUGUACCGAAUCGGUUUUUUUGGGUUUUUUUGGGUUUUUUUGGAAAGUAUUAUGUUACGCCGUUCGGAUCUGCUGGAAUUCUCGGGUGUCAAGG", "log2 enrichment": -0.771}
{"data": "Sample 4", "target": "Histone acetyltransferase KAT6A, winged helix 1, GST fusion (KAT6A, Homo sapiens, UniProt Q92794, residues 1-85)", "method": "protein binding microarray", "molecule type": "double-stranded DNA, one strand shown", "matrix": "in vitro", "tested at": "not given", "notes": "8-mer, flanks averaged, mean of 2 arrays, mostly near background", "reference": "not given", "reading": "higher = stronger binding", "Target sequence (chain)": "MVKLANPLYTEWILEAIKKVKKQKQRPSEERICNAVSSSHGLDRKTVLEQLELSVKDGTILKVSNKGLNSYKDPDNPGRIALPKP"}
{"Sequence": "CGGGCTCC", "E-score": 0.227}
{"Sequence": "AGGGTATA", "E-score": -0.0894}
{"Sequence": "GGGAATGA", "E-score": 0.0395}
{"Sequence": "AACACCGA", "E-score": 0.108}
{"Sequence": "CATCGCGC", "E-score": 0.369}
{"Sequence": "AACTAGGT", "E-score": -0.116}
{"Sequence": "GTTCAGTA", "E-score": 0.0479}
{"Sequence": "GGAAGTGA", "E-score": 0.0589}
{"Sequence": "CGCCGGGC", "E-score": 0.457}
{"Sequence": "GGGACTCA", "E-score": 0.0313}
{"Sequence": "AAAATTTG", "E-score": -0.272}
{"Sequence": "GCTGCTAA", "E-score": -0.121}
{"Sequence": "ACACGTTG", "E-score": -0.164}
{"Sequence": "CACAACCG", "E-score": -0.0216}
{"Sequence": "CGGGCAGC", "E-score": 0.278}
{"Sequence": "ACCATGGG", "E-score": -0.0162}
{"Sequence": "GGGCTAGA", "E-score": -0.024}
{"Sequence": "GGCGCTCA", "E-score": 0.326}
{"note": "Excerpt of the above (sample 3):"}
{"Sequence": "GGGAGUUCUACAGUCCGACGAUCUCAAGUCCUGUGCUACACAUCGUAUGUACCGAAUCGGUUUUUGGAAAAAGGUGGAAAGUAUUAUGUUACGCCGUUCGGAUCUGCACUUCCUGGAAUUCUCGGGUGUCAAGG", "log2 enrichment": -0.749}
{"Sequence": "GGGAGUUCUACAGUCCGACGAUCAAGUCCUGUGCUACACAUCGUAUGUACCGAAUCGGUUUUUGGUUUGGUUUUUUUGGAAAGUAUUAUGUUACGCCGUUCGGAUCUGCACUUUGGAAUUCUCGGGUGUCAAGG", "log2 enrichment": -1.1}
